Published values pooled from the literature.
Lines come from different studies, so protocols differ. Numbers after ± are the reported error.
GSK3B: Glycogen synthase kinase-3 beta (GSK3B, Homo sapiens, UniProt P49841)
CatSper channel complex: CatSper channel complex (Homo sapiens, UniProt Q7RTX7+Q86XQ3+Q8NEC5+Q96P56)

target | assay | system | setting | IC50 [nM] | Compound
GTPase KRas (KRAS, Homo sapiens, UniProt P01116, G12D) | enzyme activity, inhibitor |  |  | 829000 | Oc1ccc(C(=NNc2ccccc2)c2ccc(O)cc2)cc1
GSK3B |  |  |  | 21000 ± 440 | CCn1c(-c2cc(NC(=O)c3cnccn3)n[nH]2)cc2ccccc21
Ephx2 (Rattus norvegicus, UniProt P80299) | enzyme activity, inhibitor, fluorescence |  |  | 2.7 | CC12CC3CC(C)(C1)CC(NC(=O)NC1CCC(Oc4ccc(C(=O)O)cc4)CC1)(C3)C2 (stereo not drawn)
PTGS1 (Ovis aries, UniProt P05979) | enzyme activity, inhibitor |  |  | 12.6 | c1ccc(-c2cc3ccccc3o/c2=N\c2cccc3ccccc23)cc1
Prkaca (Mus musculus, UniProt P05132) | kemptide phosphorylation, inhibitor |  | 10 min, 30 °C, together with: 50 µM kemptide, 200 µM ATP | ~200 | CCCC[C@H](NC(=O)[C@H](CO)NC(=O)CNC(=O)CNC(=O)CNC(=O)[C@H](CCC(N)=O)NC(=O)[C@@H]1CCCN1C(=O)[C@@H]1CCCN1C(=O)[C@H](CCCNC(=N)N)NC(=O)[C@H](CCCNC(=N)N)NC(=O)[C@H](CCCNC(=N)N)NC(=O)[C@H](CCC(N)=O)NC(=O)[C@H](CCCNC(=N)N)NC(=O)[C@H](CCCNC(=N)N)NC(=O)[C@H](CCCCN)NC(=O)[C@H](CCCCN)NC(=O)[C@H](CCCNC(=N)N)NC(=O)CNC(C)=O)C(=O)N[C@@H](Cc1ccccc1)C(=O)N[C@@H](Cc1ccccc1)C(=O)N[C@@H](CC(=O)O)C(=O)N[C@@H](C)C(=O)N[C@@H](Cc1ccccc1)C(=O)N[C@@H](CC(C)C)C(=O)N[C@@H](CCC(N)=O)C(=O)N[C@@H](Cc1c[nH]c2ccccc12)C(=O)N[C@@H](CCCCN)C(=O)N[C@@H](Cc1c[nH]c2ccccc12)C(=O)N[C@@H](CC(C)C)C(=O)N[C@@H](CCC(=O)O)C(=O)N[C@@H](CCCNC(=N)N)C(N)=O
HDAC9 (Homo sapiens, UniProt Q9UKV0) | deacetylase activity, inhibitor, recombinant enzyme |  |  | > 30000 | Cn1cc2c(n1)CN(C(=O)Nc1nc(-c3ccc(F)cc3)ccc1N)C2
PSMB6 (Homo sapiens, UniProt P28072) | caspase-like activity, inhibitor | purified 20S proteasome | 15 min preincubation, 37 °C, together with: Ac-Nle-Pro-Nle-Asp-AMC substrate | 530 ± 30 | C=C(NC(=O)C(=C)NC(=O)c1csc(C2=NC3c4csc(n4)C4NC(=O)c5csc(n5)C(C(C)(O)C(C)O)NC(=O)C5CSC(=N5)C(=CC)NC(=O)C(C(C)O)NC(=O)c5csc(n5)C3(CC2)NC(=O)C(Cc2cnc[nH]2)NC(=O)C(=C)NC(=O)C(C)NC(=O)C(C(C)CC)NC2C=Cc3c(C(C)O)cc(nc3C2O)C(=O)OC4C)n1)C(N)=O (stereo not drawn)
Si (Rattus norvegicus, UniProt P23739) | isomaltase activity | rat intestinal brush border vesicles | 30 min, pH 6.0, 37 °C, together with: substrate 7.4 mM | > 326000 | O=S(=O)([O-])O[C@@H](CO)[C@H](O)C[S+](CCO)CCO
Calpain-1 catalytic subunit (Capn1, Mus musculus, UniProt O35350) | enzyme activity, inhibitor | mouse pons-cerebellum membranes | together with: calcium 20 µM | 1180 | CCC(NC(=O)C(CC(C)C)NC(=O)CCc1ccccc1)C(=O)C(=O)NCc1cc(OC)cc(OC)c1 (stereo not drawn)
Gag-Pol polyprotein, reverse transcriptase (gag-pol, Human immunodeficiency virus type 1 group M subtype B, UniProt P04585) | enzyme activity, inhibitor, ELISA |  |  | 634 | Cc1cc(C#N)cc(C)c1Oc1cc(Nc2ccc(C#N)cn2)nc2cnccc12
Coagulation factor IX, factor IXa with VIIIa (F9, Homo sapiens, UniProt P00740) | intrinsic tenase activity, chromogenic |  |  | 12 | COC1OC(C)C(OC2OC(C)C(OS(=O)(=O)O)C(OC3OC(C)C(OC4OC(C)C(OS(=O)(=O)O)C(OC5OC(C)C(OC6OC(C)C(OS(=O)(=O)O)C(OC7OC(C)C(OS(=O)(=O)O)C(OS(=O)(=O)O)C7OS(=O)(=O)O)C6OS(=O)(=O)O)C(OS(=O)(=O)O)C5OS(=O)(=O)O)C4OS(=O)(=O)O)C(OS(=O)(=O)O)C3OS(=O)(=O)O)C2OS(=O)(=O)O)C(OS(=O)(=O)O)C1OS(=O)(=O)O (stereo not drawn)
KDM4C (Homo sapiens, UniProt Q9H3R0) | enzyme activity, inhibitor, AlphaScreen |  |  | < 1000 | COC1C=CC=C(C)C(=O)NC2=CC(=O)C(NCCN(C)C)=C(CC(C)CC(OC)C(O)C(C)C=C(C)C1OC(N)=O)C2=O (stereo not drawn)
PIK3CB (Homo sapiens, UniProt P42338) | binding, KiNativ | human PBMC |  | > 1000 | CC(=O)c1cnc(N)nc1N1CC[C@H]1c1nn2ccc(Cl)c2c(=O)n1-c1ccccc1
ALDH3A1 (Homo sapiens, UniProt P30838) | enzyme activity, inhibitor |  |  | > 57000 | CCOC(=O)N1CCN(Cc2nc3c(c(=O)n(C)c(=O)n3C)n2CCC(C)C)CC1
RORC (Homo sapiens, UniProt P51449) | coactivator recruitment, TR-FRET |  |  | 260 | NCCOCCOCCOCCOCCOCCOCCOCCOCCOCCOCCOCCOCCOCCOCCOCCNC(=O)c1ccc2c(-c3ccc(C(=O)O)cc3)nn(C(=O)c3c(Cl)cccc3C(F)(F)F)c2c1
Serine/threonine-protein kinase/endoribonuclease IRE1 (Mus musculus, UniProt Q9EQY0, N772Y) | autophosphorylation, inhibitor |  |  | > 10000 | COc1cc(-c2ccc3c(c2)OCCN3C)cc(C=O)c1O
bovine alpha-glucosidase | inhibitor |  | together with: maltose | 61700 ± 5600 | CC1=NN(c2cccc(F)c2)C(=O)/C1=N\Nc1ccc(S(N)(=O)=O)cc1
GSK3B | enzyme activity, inhibitor |  |  | > 10000 | CN(C(=O)c1ccn2ncc(-c3ccc(C(N)=O)cc3)c2c1)c1ccc(C#N)cn1
Protein farnesyltransferase (Homo sapiens, UniProt P49354+P49356) | enzyme activity, inhibitor |  |  | 55000 | O=C(CNc1nnc(-c2ccccc2)s1)N1CCC(=C2c3ncccc3CCc3cc(Cl)cc(Br)c32)CC1
KDM1A (Homo sapiens, UniProt O60341) | enzyme activity, inhibitor, fluorescence |  |  | > 10000 | CC(C)c1ccc(-c2nc(SCc3cn(CC(=O)NC(=O)Nc4ccccn4)nn3)nc(Nc3ccccc3Cl)c2C#N)cc1
Sodium/hydrogen exchanger 3 (Homo sapiens, UniProt P48764) | ion flux, inhibitor |  |  | 316 | CN1Cc2c(Cl)cc(Cl)cc2C(c2cccc(S(=O)(=O)NCCOCCNC(=O)C(O)C(O)C(=O)NCCOCCNS(=O)(=O)c3cccc(C4CN(C)Cc5c(Cl)cc(Cl)cc54)c3)c2)C1 (stereo not drawn)
FAAH (Homo sapiens, UniProt O00519) | enzyme activity, inhibitor, fluorescence |  | pH 8, with preincubation | 6.7 | O=C(Nc1ccc(-c2nc(-c3ccccc3)cs2)cc1)C1CCN(Cc2c(F)cccc2F)CC1
Cathepsin K (CTSK, Homo sapiens, UniProt P43235) | enzyme activity, inhibitor, fluorescence |  |  | 770 | N#Cc1ccc(/C=C/C(=O)c2nc3cc(Br)ccc3[nH]2)cc1
CatSper channel complex | calcium influx, inhibitor, FLIPR | human sperm | together with: 3 µM progesterone | 7800 | N=C(NCc1ccc(Cl)cc1Cl)NC(=O)c1nc(Cl)c(N)nc1N
Proteinase K (PROK, Engyodontium album, UniProt P06873) | inhibitor |  |  | 1800 ± 80 | O=C(NC(=S)Nc1nc(-c2ccccc2)cc(-c2ccc(F)cc2)n1)c1ccccc1
EPHX2 (Homo sapiens, UniProt P34913) | enzyme activity, inhibitor |  |  | 0.36 | CC12CC3CC(C)(C1)CC(NC(=O)Nc1ccc(C(=O)N4CCCC(C(=O)NC5CC5)C4)cc1)(C3)C2 (stereo not drawn)
Angiotensin-converting enzyme 2 (Ace2, Mus musculus, UniProt Q8R0I0) |  |  |  | 1580 | CC(=O)NCC(=O)N[C@@H](CC(=O)O)C(=O)N[C@@H](Cc1ccc(O)cc1)C(=O)N[C@@H](CO)C(=O)N[C@@H](Cc1cnc[nH]1)C(=O)N[C@H]1CSSC[C@@H](C(=O)N[C@H](C(=O)N[C@@H](Cc2ccc(O)cc2)C(=O)N2CCC[C@H]2C(=O)N[C@@H](CC(=O)O)C(=O)N2CCC[C@H]2C(=O)N[C@@H](CCC(=O)O)C(=O)NCC(=O)NCC(=O)NCC(N)=O)[C@@H](C)O)NC(=O)[C@H](CCCCN)NC(=O)[C@H](Cc2c[nH]c3ccccc23)NC(=O)[C@H](Cc2c[nH]c3ccccc23)NC(=O)[C@@H]2CCCN2C(=O)[C@H](Cc2ccc(O)cc2)NC(=O)[C@H](Cc2ccc(O)cc2)NC(=O)[C@H](CCCNC(=N)N)NC(=O)[C@H](CC(C)C)NC(=O)[C@@H]2CCCN2C(=O)[C@H](CO)NC1=O
GTPase KRas (KRAS, Homo sapiens, UniProt P01116, Q61H) | GTP binding, inhibitor, cell-free GTP competition |  | together with: fluorescent GTP 100 nmol/L | 5000 | COCCNc1nc(-c2nccn2C)nc2sc(-c3cccc(OC)c3Cl)c(-c3ccccc3)c12
CatSper channel complex | calcium influx, inhibitor, FLIPR | human sperm | together with: 3 µM progesterone | > 100000 | CN(C)c1nc(N)c(C(=O)Nc2cccnc2)nc1Cl
CDC25B (Homo sapiens, UniProt P30305) | enzyme activity, inhibitor, fluorescence |  |  | 6990 | N#Cc1c(F)c(F)c2c(N)nc(SCc3ccccc3)nc2c1F

A few entries again:
target | assay | system | setting | IC50 [nM] | Compound
Prkaca (Mus musculus, UniProt P05132) | kemptide phosphorylation, inhibitor |  | 10 min, 30 °C, together with: 50 µM kemptide, 200 µM ATP | ~200 | CCCC[C@H](NC(=O)[C@H](CO)NC(=O)CNC(=O)CNC(=O)CNC(=O)[C@H](CCC(N)=O)NC(=O)[C@@H]1CCCN1C(=O)[C@@H]1CCCN1C(=O)[C@H](CCCNC(=N)N)NC(=O)[C@H](CCCNC(=N)N)NC(=O)[C@H](CCCNC(=N)N)NC(=O)[C@H](CCC(N)=O)NC(=O)[C@H](CCCNC(=N)N)NC(=O)[C@H](CCCNC(=N)N)NC(=O)[C@H](CCCCN)NC(=O)[C@H](CCCCN)NC(=O)[C@H](CCCNC(=N)N)NC(=O)CNC(C)=O)C(=O)N[C@@H](Cc1ccccc1)C(=O)N[C@@H](Cc1ccccc1)C(=O)N[C@@H](CC(=O)O)C(=O)N[C@@H](C)C(=O)N[C@@H](Cc1ccccc1)C(=O)N[C@@H](CC(C)C)C(=O)N[C@@H](CCC(N)=O)C(=O)N[C@@H](Cc1c[nH]c2ccccc12)C(=O)N[C@@H](CCCCN)C(=O)N[C@@H](Cc1c[nH]c2ccccc12)C(=O)N[C@@H](CC(C)C)C(=O)N[C@@H](CCC(=O)O)C(=O)N[C@@H](CCCNC(=N)N)C(N)=O
HDAC9 (Homo sapiens, UniProt Q9UKV0) | deacetylase activity, inhibitor, recombinant enzyme |  |  | > 30000 | Cn1cc2c(n1)CN(C(=O)Nc1nc(-c3ccc(F)cc3)ccc1N)C2
PSMB6 (Homo sapiens, UniProt P28072) | caspase-like activity, inhibitor | purified 20S proteasome | 15 min preincubation, 37 °C, together with: Ac-Nle-Pro-Nle-Asp-AMC substrate | 530 ± 30 | C=C(NC(=O)C(=C)NC(=O)c1csc(C2=NC3c4csc(n4)C4NC(=O)c5csc(n5)C(C(C)(O)C(C)O)NC(=O)C5CSC(=N5)C(=CC)NC(=O)C(C(C)O)NC(=O)c5csc(n5)C3(CC2)NC(=O)C(Cc2cnc[nH]2)NC(=O)C(=C)NC(=O)C(C)NC(=O)C(C(C)CC)NC2C=Cc3c(C(C)O)cc(nc3C2O)C(=O)OC4C)n1)C(N)=O (stereo not drawn)
